Experimental data of several laboratories.
Each line is one published result; not all experiments were run side by side. Values joined by “and” are separate records of one study, mostly repeats; a detail may differ.

Compound | target or system | test | system | conditions | how to read | quantity | value
C=CC(=O)Nc1cccc(Cn2ncc3cnc(Nc4cnn(CCOC)c4)nc32)c1 | ERK5 human | binding, KINOMEscan | – | 100 nM | lower = stronger binding | percent of control | 100%
Nc1ncc(-c2cc(-c3cnn(CC(F)(F)F)c3)ncc2F)nc1C(=O)NC1CNCC(F)C1 (centres unmarked) | CDK4 | KINOMEscan | – | 1 µM | baseline: DMSO control | remaining binding | 86%
COc1ccccc1-c1ccncc1C(=O)Nc1nnc(OCc2ccc(Cl)cc2)s1 | MDA-MB-436 BRCA1-mutant | – | – | 1.5 µM, single replicate | baseline: untreated | colony survival | 45.2% and 57.4% and 48.1%
COC1CN([C@H]2CC[C@H]([C@@]3(C)Oc4c(Cl)cc(C(=O)NCc5c(SC)cc(C)[nH]c5=O)c(C)c4O3)CC2)C1 | – | RNA-seq, item: TRIM36 | human, whole blood | dose not given, 24 h | baseline: pretreatment baseline | log2 fold change | 1.58
Cc1ncsc1-c1ccc(C(C)NC(=O)C2CC(O)CN2C(=O)C(NC(=O)CCCCCCCCCCN2CCCC(Nc3ncc(Cl)c(Nc4ccccc4S(=O)(=O)C(C)C)n3)C2)C(C)(C)C)cc1 (centres unmarked) | 22Rv1 | RNA-seq, item: ZNF440 mRNA | – | concentration not given | baseline: DMSO | log2 fold change | -1.59
CNS(=O)(=O)Nc1nccc(Cc2c(C)c3ccc(Oc4ncccc4F)cc3oc2=O)c1F | KMS-28BM | cell viability | – | 7 days | – | IC50 | > 1 µM
CCN(CC)CC(=O)Nc1cccc(-n2cc(-c3ccc4ccc(-c5cn(-c6cccc(NC(=O)CN(CC)CC)c6)nn5)cc4c3)nn2)c1 | RCC4 | PCR angiogenesis array, item: TIMP3 | – | 5 x IC50, 2 h, normoxia | baseline: untreated | fold regulation | 1.02 fold
C=CC(=O)N1[C@@H](c2ccc3c(c2)OCO3)c2[nH]c3ccccc3c2C[C@H]1C(=O)N1CCN(C)CC1 | human cyclin E1 N112C-3xFLAG:CDK2 | co-IP with TMT proteomics, item: CDK2 | – | concentration not given, P24941 | baseline: wild type DMSO | relative co-enrichment | 105%

Repeated from above:
Compound | target or system | test | system | conditions | how to read | quantity | value
Cc1ncsc1-c1ccc(C(C)NC(=O)C2CC(O)CN2C(=O)C(NC(=O)CCCCCCCCCCN2CCCC(Nc3ncc(Cl)c(Nc4ccccc4S(=O)(=O)C(C)C)n3)C2)C(C)(C)C)cc1 (centres unmarked) | 22Rv1 | RNA-seq, item: ZNF440 mRNA | – | concentration not given | baseline: DMSO | log2 fold change | -1.59
